# Assay results pooled from the literature.
# Numbered parts are unrelated; each lists some results of a single study. Changes are numbered by the printed parent chain.

# Block 1
# Target: ATP-dependent RNA helicase DDX3X, helicase core (DDX3X, Homo sapiens, UniProt O00571, residues 132-607)
# Chain of UniProt O00571 (132-607, looked up): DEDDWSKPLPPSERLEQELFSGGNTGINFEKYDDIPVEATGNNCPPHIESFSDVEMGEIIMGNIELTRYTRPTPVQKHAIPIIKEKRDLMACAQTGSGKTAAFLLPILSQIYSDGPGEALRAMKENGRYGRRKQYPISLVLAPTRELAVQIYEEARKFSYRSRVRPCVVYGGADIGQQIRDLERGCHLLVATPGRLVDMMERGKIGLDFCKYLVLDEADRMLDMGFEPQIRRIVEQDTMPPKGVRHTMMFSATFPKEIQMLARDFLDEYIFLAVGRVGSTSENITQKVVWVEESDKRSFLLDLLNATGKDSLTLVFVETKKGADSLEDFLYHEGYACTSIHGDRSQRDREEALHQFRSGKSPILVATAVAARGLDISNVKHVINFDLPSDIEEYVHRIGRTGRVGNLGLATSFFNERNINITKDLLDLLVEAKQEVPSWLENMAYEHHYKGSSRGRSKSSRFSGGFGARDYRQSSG
# Method: RNA Bind-n-Seq
# Form: RNA
# Sample: in vitro
# Tested at: not given
# Setting: 4-mer, random 30-nt RNA, single round
# Together with: RocA, ADP, phosphate
# Reference: input library
# Direction: higher = stronger binding
Oligonucleotide,4-mer enrichment
CUCC,0.816 fold
AGGA,2.12 fold
CGUG,1.03 fold
AUAA,0.965 fold
GCCA,0.729 fold
AACC,0.744 fold
AUAC,0.721 fold
UGUA,1.08 fold

# Block 2
# Target: UBE2A UBC core domain (UniProt P49459)
# Chain of UniProt P49459 (whole entry, looked up): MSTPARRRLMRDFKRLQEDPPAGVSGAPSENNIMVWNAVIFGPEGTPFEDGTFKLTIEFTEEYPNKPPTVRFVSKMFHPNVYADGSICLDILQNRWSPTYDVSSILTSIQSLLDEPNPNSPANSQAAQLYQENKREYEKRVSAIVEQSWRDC
# Method: yeast two-hybrid
# Sample: yeast
# Setting: mostly zero background
# Reference: not given
# Direction: higher = stronger interaction
# B1: ZNF598 RING domain (UniProt Q86UK7); chain AAAPERGGGSCVLCCGDLEATALGRCDHPVCYRCSTKMRVLCEQRYCAVCREELRQVVFGK
# B2: TRIM69 RING domain (UniProt Q86WT6); chain VIQDITMELHCPLCNDWFRDPLMLSCGHNFCEACIQDFWRLQAKETFCPECKMLCQYNNCTF
Sequence,lacZ reporter activity
FPEHFVKSISCQICEHILADPVETNCKHVFCRVCILRCLKVMGSYCPSCRYPCFPTDLES (RAG1 RING domain (UniProt P15918)),0
QHHELTSLFECPVCFDYVLPPILQCQAGHLVCNQCRQKLSCCPTCRGALTPSIRNL (SIAH2 RING domain (UniProt O43255)),0
QLRRLQEERTCKVCMDKEVSIVFIPCGHLVVCKDCAPSLRKCPICRSTIKGTVRTF (BIRC3 RING domain (UniProt Q13489)),0
B1 (ZNF598 RING domain),0
FASPPDSNFVCSVCHGVLKRPARLPCSHIFCKKCILRWLARQKTCPCCRKEVKRKKVVH (RNF151 RING domain (UniProt Q2KHN1)),0
B2 (TRIM69 RING domain),0
VTLSLTLPITCHICLGKVRQPVICINNHVFCSICIDLWLKNNSQCPACRVPITPENPCK (OBI1 RING domain (UniProt Q5W0B1)),0
KTLSRFGIQPCSICLGDAKDPVCLPCDHVHCLRCLRAWFASEQMICPYCLTALPDEFSPA (RNF213 RING domain (UniProt Q63HN8)),0

# Block 3
# Target: HLA class I histocompatibility antigen, A alpha chain, allele A*80:01 (Homo sapiens, UniProt P04439)
# Effect on: peptide-MHC binding
# Form: peptide
# Tested at: concentration not given
Sequence,binding
GVNDTEAHA,inactive
FGAQMGWPV,inactive
QLSLKMLSL,inactive
MPIAAAIGT,inactive
TPSGKRLQI,inactive
TSACGIFLK,inactive
YSQESPQSY,inactive
DEFLKVPEW,inactive
HSEEGSRAY,inactive
FHSRFVQAL,inactive

# Block 4
# Target: CCNB1, cyclin fold, Cln2 fusion (human)
# Method: yeast growth competition, sequencing
# Sample: yeast
# Setting: strong parent motif
# Reference: not given
# Direction: higher = stronger binding
# Starting sequence: viral docking peptide; KGVKRKLFAEDSS; partner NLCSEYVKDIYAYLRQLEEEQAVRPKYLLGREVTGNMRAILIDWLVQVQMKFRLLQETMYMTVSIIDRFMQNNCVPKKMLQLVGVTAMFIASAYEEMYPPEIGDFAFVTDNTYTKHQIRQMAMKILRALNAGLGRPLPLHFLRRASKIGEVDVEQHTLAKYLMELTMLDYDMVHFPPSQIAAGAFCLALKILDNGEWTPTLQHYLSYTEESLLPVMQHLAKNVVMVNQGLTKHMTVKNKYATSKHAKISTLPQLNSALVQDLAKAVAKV
Variant,normalised enrichment score
K4W,0.121
A9G,1.81
E10P,0.858
F8A,0.706
G2R,1.78
A9D,3.29
F8L,-0.0108
L7F,0.447
F8I,0.0961
K6G,0.682
E10D,3.24
S12M,2.2
A9Y,2.99
D11E,2.85
R5T,0.812
K6E,2.28
A9P,2.1

# For quick reference, copied from above (block 3):
Sequence,binding
MPIAAAIGT,inactive
TPSGKRLQI,inactive
TSACGIFLK,inactive
YSQESPQSY,inactive
DEFLKVPEW,inactive
HSEEGSRAY,inactive
